Assay results from different studies.
Compare with care: the assays were run in different laboratories. Several values in a cell are separate wells, animals, samples, runs or records. Numbers after ± are the reported error.

Compound | test | system | conditions | scale | quantity | value
CC[C@H](C)[C@H](NC(=O)[C@H](CC(C)C)NC(=O)[C@H](CCCCN)NC(=O)[C@@H](NC(=O)[C@H](C)NC(=O)[C@H](CCC(=O)O)NC(=O)[C@H](Cc1c[nH]cn1)NC(=O)[C@@H](NC(=O)[C@H](CCCCN)NC(=O)[C@H](CCC(N)=O)NC(=O)[C@H](Cc1ccccc1)NC(=O)[C@@H](NC(=O)[C@H](CCCCN)NC(=O)[C@@H](N)CCCCN)C(C)C)[C@@H](C)CC)[C@@H](C)CC)C(N)=O | hemolysis | mouse erythrocytes | – | – | HC10 | 256 µM
C[C@]1(CO)Cc2ncn(-c3ccc(C#N)c(Cl)c3)c2C(=O)O1 | – | human, plasma | 10 mg once daily, fasted | – | half-life at steady state | 5.9 h
CCc1ccc(CC/C=C/c2ccc3c(c2)C(=O)CC3)cc1 | – | Sprague-Dawley rat, male, serum | oral, 120 mg/kg/day, 14 days | – | sodium | 143 mM
CN1CC[C@@H](c2c(O)cc(O)c3c(=O)cc(-c4ccc(C(F)(F)F)cc4Cl)oc23)[C@@H]1CO | measured: urinary incontinence | B-cell malignancies or AML | oral, 50 mg, grade 3 to 4, continuous dosing | – | patients with adverse event | 0%
CO[C@H]1C[C@@H]2CC[C@@H](C)[C@@](O)(O2)C(=O)C(=O)N2CCCC[C@H]2C(=O)O[C@H]([C@H](C)C[C@@H]2CC[C@@H](OC(=O)NCCOCCOCCOCCOCCOCCOCCOCCOCCC(=O)N3CCc4cc(Cn5nc(-c6ccc7oc(N)nc7c6)c6c(N)ncnc65)ccc4C3)[C@H](OC)C2)C[C@@H](O)[C@H](C)/C=C(\C)[C@@H](O)[C@@H](OC)C(=O)[C@H](C)C[C@H](C)/C=C/C=C/C=C/1C | – | patients with advanced solid tumours | intravenous, 1.6 mg/3 mg weekly, any grade | – | Fatigue AE leading to dose reduction | 0%
CC(C)[C@@H]1NC(=O)CNC(=O)[C@H](CC(N)=O)NC(=O)[C@H](CCCNC(=N)N)NC(=O)[C@H](Cc2ccc(O)cc2)NC(=O)[C@H](C(C)C)NC(=O)[C@@H](NC(=O)[C@@H](NC(=O)[C@H](CC(N)=O)NC(=O)[C@H](Cc2c[nH]c3ccccc23)NC(=O)[C@H](C)NC(=O)[C@H](Cc2ccccc2)NC(=O)CN)C(C)C)CSSC[C@@H](C(=O)N[C@@H](Cc2cnc[nH]2)C(=O)N[C@@H](CCCNC(=N)N)C(=O)N[C@@H](CCCNC(=N)N)C(=O)N[C@@H](C)C(=O)N[C@@H](CC(N)=O)C(N)=O)NC(=O)[C@H](C(C)C)NC(=O)[C@H](CCCNC(=N)N)NC1=O | – | mouse mammary gland homogenate 50 mg/mL | 8.00 h, 37 °C | – | peptide remaining | 45.8% and 50.1% and 40.4%
Cc1ncsc1CCCl | – | male rat liver microsomes | 50 µM, 3 h, together with: DHA-Na 5 mg/L | – | inhibition | 1.6 ± 0.21%
O=C(O)C(O)(c1cccs1)c1cccs1 | – | human, plasma | oral, 2 mg once daily, 5 days, median | relative to: metabolite over parent | metabolite over parent AUC(0-24) ratio | 0.109
CCN1[C@@H](C(=O)NC23CCC(C(=O)O)(CC2)CC3)[C@H](c2cccc(Cl)c2F)[C@]2(C(=O)Nc3cc(Cl)ccc32)C12CCCCC2 | – | patients with advanced solid tumours | oral, 150 mg | – | grade ≥3 Anemia incidence | 37.5%
O=c1nc(NO)ccn1[C@@H]1O[C@H](CO)[C@@H](O)[C@H]1O | – | rat maternal placenta dialysate | 1000 ng/mL, more than 4 weeks, -20 °C, high concentration, together with: molnupiravir 250 ng/mL | – | long-term stability | 102.8 ± 0.47%
CC1(C)C(C=C(Cl)Cl)C1C(=O)OC(C#N)c1ccc(F)c(Oc2ccccc2)c1 (stereo not drawn) | IVIVE scaling | human adult | – | – | hepatic intrinsic clearance | 3710 L/h/kg liver
COc1cc2c(Oc3ccc4[nH]c(C)cc4c3F)ccnc2cc1OCC1(N)CC1 | – | paediatric recurrent refractory sarcoma | 12 mg | – | grade 1 or 2 abdominal pain | 27.3%
COc1ccc(C[C@@H]2NC(=O)[C@H]([C@@H](C)O)NC(=O)[C@@H]3[C@@H]4CCN3C(=O)[C@@H]3Cc5cn(c6ccc(F)cc56)CCCCCCN(Cc5ccc(cc5)CCNC(=O)[C@]5(C)CCCN5C2=O)C(=O)CCC(=O)N[C@@H](C)C(=O)N[C@H](CNC(=O)CCCCC[N+](C)(C)C)C(=O)N[C@@H](Cc2cccc(c2)CNC(=O)CO4)C(=O)N3)cc1 | measured: Erythema | humans | concentration not given, Study-003 | – | participants with adverse event | 0%
COc1ccc2nc3cc(Cl)ccc3c(Nc3cc(CN4CCCC4)c(O)c(CN4CCCC4)c3)c2n1 | – | mouse, blood | intraperitoneal, 28 mg/kg | – | eosinophils | 14.1%
Cn1cncc1-c1c(F)cncc1NC(=O)c1c(N)nn2cc(F)cnc12 | – | human patients | oral, dose not given, 21 days, all doses | – | anaemia DLT | 19%
Clc1cc2c(cc1Cl)Oc1c(ccc(Cl)c1Cl)O2 | ultrafiltration | cow milk whey | 20 nM nominal in whole milk | – | final permeate concentration | 0.11 nM
O=S(=O)(Nc1ccccc1)c1ccc(NC(=S)Nc2ccccc2)cc1 | measured: RDW | female mouse, blood | oral, 80 mg/kg daily, 14 days | – | blood cell fraction | 16.4%
C[C@]1(O)C[C@@](N)(c2ccc(-c3nc4n(c3-c3ccccc3)COc3ccncc3-4)cc2)C1 | – | human, advanced or metastatic solid tumours | 16 mg once daily, dose-response cohort | – | patients with Hyperphosphatemia TEAE | 0%

Compound | test | system | conditions | scale | quantity | value
O=C(c1ccc(F)c(F)c1Nc1ccc(I)cc1F)N1CC(O)([C@@H]2CCCCN2)C1 | – | patients aged 2 to 6 years | oral, dose not given | – | related AE leading withdrawal | 0%
O=[Se](=O)([O-])[O-].[Na+].[Na+] | – | rat | subcutaneous, 0.04 mg/kg | – | half-life | 4.21 h
COc1cc(C2C3=C(COC3=O)N(CCO)c3cc4c(cc32)CCC4)cc(OC)c1OC (stereo not drawn) | – | female C57BL/6 mice | intraperitoneal, 400 mg/kg, 72 h, single dose, mean | – | body weight | 21.3 g
CC(C)[C@H](N)C(=O)NCCCS(=O)(=O)O | – | human, plasma | oral, 265 mg twice daily, week 65, steady state | – | AUC(0-8h) | 11200 ng·h/mL
COc1ncccc1-c1cnn2ccc(N3CCN(C(=O)OC(C)C)CC3)nc12 | – | mouse, SNL model, plasma | oral, 10 mg/kg, 30 min | – | free drug concentration | 79 nM
CC(C)Nc1ccnc(Nc2cccc(-c3cccnc3)c2)n1 | measured: albumin | mouse, blood | intraperitoneal, 10 mg/kg | – | blood chemistry | 3.6 g/dL
CNC(=O)c1cc(Oc2ccc(NC(=O)Nc3cc(C(C)(C)C)nn3-c3ccc4ncccc4c3)c(F)c2)ccn1 | viral cardiomyopathy, NCI CTC v3.0 | human patients | oral, 150 mg twice daily, tablet, dose at onset | – | related SAE | 3%
NCCCC[C@@H]1NC(=O)[C@@H](Cc2c[nH]c3ccccc23)NC(=O)[C@H](c2ccccc2)NC(=O)[C@@H]2C[C@@H](OC(=O)NCCN)CN2C(=O)[C@H](Cc2ccccc2)NC(=O)[C@H](Cc2ccc(OCc3ccccc3)cc2)NC1=O | – | healthy volunteers | subcutaneous, 600 µg twice daily, day 5, 24.00 h | – | QTcI change from baseline | 3.9 ms
O=C(Nc1ccccc1)C1CCN(C(=O)Oc2cccnc2)CC1 | – | healthy women | oral, 20 mg, 7 days | – | adverse event Lethargy | 7.1%
Cn1nc(NS(C)(=O)=O)c2c(Cl)ccc(-n3c([C@H](Cc4cc(F)cc(F)c4)NC(=O)Cn4nc(C(F)F)c5c4C(F)(F)[C@@H]4C[C@H]54)nc4nc(OCCC(F)(F)F)ccc4c3=O)c21 | – | human | oral, dose not given, powder in bottle single doses | – | participants, with AEs, drug-related | 7%
Clc1ccc(-c2ccccc2)cc1 | – | rat Sprague-Dawley female, serum | inhalation, 35 µg/rat, 24 h | – | serum CO2 | 25 ± 1 mmol/L
CC(C)C[C@H](NC(=O)[C@H](CCCCN)NC(=O)OCC1c2ccccc2-c2ccccc21)C(=O)N[C@H](C(=O)N[C@@H](Cc1ccccc1)C(=O)N[C@@H](Cc1ccccc1)C(=O)N[C@@H](CCCCN)C(=O)NCC(=O)N[C@@H](Cc1ccccc1)C(=O)N[C@@H](C)C(=O)N[C@@H](Cc1c[nH]c2ccccc12)C(=O)N[C@@H](CC(N)=O)C(=O)N[C@H](C(=O)N[C@H]1CSSC[C@@H](C(=O)N[C@@H](Cc2c[nH]cn2)C(=O)N[C@@H](CCCNC(=N)N)C(=O)N[C@@H](CCCNC(=N)N)C(=O)N[C@@H](C)C(=O)N[C@@H](CC(N)=O)C(N)=O)NC(=O)[C@H](C(C)C)NC(=O)[C@H](CCCNC(=N)N)NC(=O)[C@H](C(C)C)NC(=O)CNC(=O)[C@H](CC(N)=O)NC(=O)[C@H](CCCNC(=N)N)NC(=O)[C@H](Cc2ccc(O)cc2)NC(=O)[C@H](C(C)C)NC1=O)C(C)C)C(C)C | circular dichroism, measured: Parallel | PBS | 80 µM, pH 7.4 | – | secondary structure content | 3.25%
CC(=O)c1c(C)c2cnc(Nc3ccc(C4CCN(CCS(C)(=O)=O)CC4)cn3)nc2n(C2CCCC2)c1=O | – | HR+/HER2- advanced breast cancer patients | oral, 100 mg twice daily, all grades,, monotherapy | – | patients with ALT increased | 6.7%
CC(C)(c1ccccc1)c1cc(-n2nc3ccccc3n2)c(O)c(C(C)(C)c2ccccc2)c1 | exposure assessment | human, age 21-60 years | concentration not given, cream, 95th percentile | – | daily dermal uptake, percentile | 4.88 ng/kg body weight/day
CC(C)(O)c1cc(Nc2cc(Oc3cn(C4CC4)nc3C3CCOCC3)ccn2)ccn1 | Vomiting | advanced cancer patients, dose escalation | oral, dose not given, 3 weeks on/1 off, all causality grade ≥3 | – | treatment-emergent adverse events | 0%
CCCCCCCCCCCCCCCC(=O)N[C@@H](CCC(=O)NCCCC[C@H](NC(=O)[C@H](CC(=O)O)NC(=O)[C@H](CO)NC(=O)[C@@H](NC(=O)[C@H](Cc1ccccc1)NC(=O)[C@@H](NC(=O)CNC(=O)[C@H](CCC(N)=O)NC(=O)[C@H](CO)NC(=O)[C@@H](N)Cc1c[nH]cn1)[C@@H](C)O)[C@@H](C)O)C(=O)N[C@@H](CO)C(=O)N[C@@H](CCC(=O)O)C(=O)N[C@@H](Cc1ccc(O)cc1)C(=O)N[C@@H](CC(C)C)C(=O)N[C@@H](CC(=O)O)C(=O)N[C@@H](CO)C(=O)N[C@@H](CCC(=O)O)C(=O)N[C@@H](CCCNC(=N)N)C(=O)N[C@@H](C)C(=O)N[C@@H](CCCNC(=N)N)C(=O)N[C@@H](CC(=O)O)C(=O)N[C@@H](Cc1ccccc1)C(=O)N[C@H](C(=O)N[C@@H](C)C(=O)N[C@@H](Cc1c[nH]c2ccccc12)C(=O)N[C@@H](CC(C)C)C(=O)N[C@@H](CCC(=O)O)C(=O)N[C@@H](C)C(=O)NCC(=O)NCC(=O)O)C(C)C)C(=O)O | – | human, all renal groups | sc, 100 µg single dose | – | injection site bruising | 2.7%
C[C@@H]1NC(=O)[C@H](CCCCNC(=O)CO/N=C/C(=O)NCCCC[C@@H]2NC(=O)[C@@H](Cc3ccccc3)NC(=O)[C@H](CC(=O)O)NC(=O)CNC(=O)[C@H](CCCNC(=N)N)NC2=O)NC(=O)CNC(=O)[C@@H]2CCCN2C(=O)[C@H](CCCCNC(=O)CO/N=C/C(=O)NCCCC[C@@H]2NC(=O)[C@@H](Cc3ccccc3)NC(=O)[C@H](CC(=O)O)NC(=O)CNC(=O)[C@H](CCCNC(=N)N)NC2=O)NC(=O)[C@H](CCCCNC(=O)CN2CCCNCCNCCCNCC2)NC(=O)[C@H](CCCCNC(=O)CO/N=C/C(=O)NCCCC[C@@H]2NC(=O)[C@@H](Cc3ccccc3)NC(=O)[C@H](CC(=O)O)NC(=O)CNC(=O)[C@H](CCCNC(=N)N)NC2=O)NC(=O)CNC(=O)[C@@H]2CCCN2C(=O)[C@H](CCCCNC(=O)CO/N=C/C(=O)NCCCC[C@@H]2NC(=O)[C@@H](Cc3ccccc3)NC(=O)[C@H](CC(=O)O)NC(=O)CNC(=O)[C@H](CCCNC(=N)N)NC2=O)NC1=O [copper-64 labelled] | – | normal mice, kidney | intravenous, 0.74 MBq, 3 h post-injection | – | tissue uptake | 18.9 ± 1.99 %ID/g
COc1ccc(N=Nc2ccc3[nH]cc(CCNCc4cccc(OC)c4)c3c2)cc1 | HPLC | DMSO:PBS 1:1 | pH 7.4, after 530 nm irradiation | – | trans isomer fraction | 93%

Repeated from above:
Compound | test | system | conditions | scale | quantity | value
O=[Se](=O)([O-])[O-].[Na+].[Na+] | – | rat | subcutaneous, 0.04 mg/kg | – | half-life | 4.21 h
COc1cc(C2C3=C(COC3=O)N(CCO)c3cc4c(cc32)CCC4)cc(OC)c1OC (stereo not drawn) | – | female C57BL/6 mice | intraperitoneal, 400 mg/kg, 72 h, single dose, mean | – | body weight | 21.3 g
CC(C)[C@H](N)C(=O)NCCCS(=O)(=O)O | – | human, plasma | oral, 265 mg twice daily, week 65, steady state | – | AUC(0-8h) | 11200 ng·h/mL
COc1ncccc1-c1cnn2ccc(N3CCN(C(=O)OC(C)C)CC3)nc12 | – | mouse, SNL model, plasma | oral, 10 mg/kg, 30 min | – | free drug concentration | 79 nM
